{"data": "Published values of several laboratories", "note": "Every numbered part comes from another study and shows a few of its results, in no order. Positions count from the first letter of the parent shown."}
{"data": "Study 1", "target": "Centromere-binding protein 1, full length, His-tagged (CBF1, Saccharomyces cerevisiae, UniProt P17106, residues 1-351)", "method": "competition protein-binding microarray", "form": "double-stranded DNA, one strand shown", "matrix": "in vitro", "tested at": "2 µM", "setting": "whole 60-bp probe, lowest competitor level", "added": "Pho4 competitor, 0.05 µM", "direction": "higher = stronger binding", "shared flanks, not repeated": "… GTCTTGATTCGCTTGACGCTGCTG", "sequence of UniProt P17106 (whole entry, looked up)": "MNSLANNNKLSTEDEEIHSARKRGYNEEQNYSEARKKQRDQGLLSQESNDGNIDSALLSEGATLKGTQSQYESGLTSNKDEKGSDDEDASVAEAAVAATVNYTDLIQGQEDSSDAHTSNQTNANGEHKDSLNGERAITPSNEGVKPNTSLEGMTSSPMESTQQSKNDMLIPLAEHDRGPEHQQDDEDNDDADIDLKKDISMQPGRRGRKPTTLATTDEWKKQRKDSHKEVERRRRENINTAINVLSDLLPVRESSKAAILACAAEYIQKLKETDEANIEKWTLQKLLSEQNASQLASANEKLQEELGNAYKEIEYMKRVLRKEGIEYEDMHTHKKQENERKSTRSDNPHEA"}
{"Sequence": "AAAGCGGTAATTTGGCCGGTGGGTGCAGATATCTAT", "fluorescence intensity": "72.1 a.u."}
{"Sequence": "ATTCCTACTTTCCGTCACGTGGGACGCCCGTTTAGG", "fluorescence intensity": "2680 a.u."}
{"Sequence": "GTCTTGTCTCATTGCAGGGTGGGTGTCCCCACTTCA", "fluorescence intensity": "66.7 a.u."}
{"Sequence": "CAGCCGCTCGTCACCCGCGTGATGCTGTTTCTGGCG", "fluorescence intensity": "146 a.u."}
{"Sequence": "TGACCGGGTTGACAGTTCGTGACGGGTACTGTGGCG", "fluorescence intensity": "66.8 a.u."}
{"Sequence": "TTAGCTAATTTATCCCTCGTGGAATCTTGGAAGGAA", "fluorescence intensity": "82.3 a.u."}
{"Sequence": "AAAGCGGTAATTTGTAGTGTGGGTGCAGATATCTAT", "fluorescence intensity": "83.7 a.u."}
{"Sequence": "CTTAGAAGGCCGGCCCGCATGATTCAGAAGCAGACC", "fluorescence intensity": "76.2 a.u."}
{"data": "Study 2", "target": "Fragile X messenger ribonucleoprotein 1, C-terminal low-complexity region (Fmr1, Mus musculus, UniProt P35922)", "method": "RNA Bind-n-Seq", "form": "RNA", "matrix": "in vitro", "tested at": "200 nM", "setting": "whole 134-nt RNA, ends assumed", "added": "150 mM LiCl", "relative to": "input library", "direction": "higher = stronger binding", "all molecules": "7-deaza-guanosine replaces G", "shared flanks, not repeated": "GGGAGUUCUACAGUCCGACGAUC … UGGAAUUCUCGGGUGUCAAGG"}
{"Sequence": "UGGCCCUGGUGGCAUGCGGGGAGGAAGAGGUGGCCUCAUGGAUCGUGGUCGUCCCGGUGGAAUGUUCAGAGGUGGCCGUGGUGGAGACAG", "log2 enrichment": 0.119}
{"Sequence": "CUCAAGUCCUGUGCUACACAUCGUAUGUACCGAAUCGGUUUGGAGGUUUUUGGAAAGUAUUAUGUUACGCCGUUCGGAUCUGCACUUCCA", "log2 enrichment": -0.251}
{"Sequence": "AAGUCCUGUGCUACACAUCGUAUGUACCGAAUCGGGGUUUUGGGUUUUGGUUUUGGAAAGUAUUAUGUUACGCCGUUCGGAUCUGCACUU", "log2 enrichment": -2.19}
{"Sequence": "UGGCCCUGGUGGCAUGCGGGGAGGAAGAGGUGGCCUCAUGGAUCGUGGUGGUCCCGGUGGAAUGUUCAGAGGUGGCCGUGUUGGAGACAG", "log2 enrichment": -0.794}
{"Sequence": "AGUCCUGUGCUACACAUCGUAUGUACCGAAUCGGGGAGGGGUGGGGAAAAAAAGGGGAAAGUAUUAUGUUACGCCGUUCGGAUCUGCACU", "log2 enrichment": -0.0173}
{"Sequence": "CUCAAGUCCUGUGCUACACAUCGUAUGUACCGAAUCGGUUUUUGGAAAGGAGGAAAGUAUUAUGUUACGCCGUUCGGAUCUGCACUUCCA", "log2 enrichment": -1.02}
{"Sequence": "CAAGUCCUGUGCUACACAUCGUAUGUACCGAAUCGGGGAAAGGGAAAGGGGAAAGGAAAGUAUUAUGUUACGCCGUUCGGAUCUGCACUU", "log2 enrichment": -0.953}
{"data": "Study 3", "target": "CCNB2, cyclin fold, Cln2 fusion (human)", "method": "yeast growth competition, sequencing", "matrix": "yeast", "setting": "weak parent motif", "relative to": "not given", "direction": "higher = stronger binding", "parent": "SCAPER docking peptide (human); SNARRSLNFGGST"}
{"Variant": "G11S", "normalised enrichment score": -0.256}
{"Variant": "A3C", "normalised enrichment score": 0.0172}
{"Variant": "F9D", "normalised enrichment score": 0.223}
{"Variant": "G11V", "normalised enrichment score": 0.396}
{"Variant": "F9H", "normalised enrichment score": -0.00784}
{"Variant": "T13V", "normalised enrichment score": -0.00531}
{"Variant": "L7K", "normalised enrichment score": 0.307}
{"Variant": "S1K", "normalised enrichment score": 0.1}
{"Variant": "T13I", "normalised enrichment score": 0.329}
{"data": "Single results of other studies"}
{"Substance": "PhoQ, residues 284 288 289 292 302 303 TTSMTC", "target": "PhoP, residues 12 14 15 18 19 YHFSH (Escherichia coli, UniProt P23836)", "assay": "Sort-seq, measured: YFP reporter", "test system": "E. coli", "setting": "PhoQ-PhoP variant library, added: 10 µM Mg2+", "scale": "relative to: high Mg2+ state, higher = stronger signaling", "quantity": "fold induction", "result": 10.9}
{"note": "Some of these lines once more (study 1):"}
{"Sequence": "CTTAGAAGGCCGGCCCGCATGATTCAGAAGCAGACC", "fluorescence intensity": "76.2 a.u."}
{"Sequence": "CAGCCGCTCGTCACCCGCGTGATGCTGTTTCTGGCG", "fluorescence intensity": "146 a.u."}
{"Sequence": "AAAGCGGTAATTTGGCCGGTGGGTGCAGATATCTAT", "fluorescence intensity": "72.1 a.u."}
